Published values gathered from unrelated publications.
Values joined by “and” are separate records of one study, mostly repeats; a detail may differ. ≈ marks a conversion by molar mass, not a printed value.

O=c1[nH]cc(C(c2ccccc2Br)c2c[nH]c(=O)[nH]c2=O)c(=O)[nH]1 gave an inhibition of 39% (HIV-1 subtype C; p24 antigen production, p24 ELISA; 62.5 µg/mL).
The inhibition of COc1ccc(CNc2nc([C@H]3CC[C@H](C(=O)O)CC3)nc3sc4ccccc4c23)cc1Cl is reported as -19.4% and -14.8% (Cryptosporidium parvum; parasite growth, immunofluorescence imaging; HCT-8, Iowa; 24.7 nM).
O=c1[nH]cc(C(c2ccc(Cl)cc2)c2c[nH]c(=O)[nH]c2=O)c(=O)[nH]1 gave an inhibition of 32% (HIV-1 subtype C; p24 antigen production, p24 ELISA; 62.5 µg/mL).
C=C[C@]1(C)C[C@@H](OC(=O)CSc2ccc(NC(=O)c3ccco3)cc2)[C@]2(C)[C@H](C)CC[C@]3(CCC(=O)[C@H]32)[C@@H](C)[C@@H]1O — result for “lung mycoplasma load reduction”: 0.925 log10 CFU/mL and 1.72 log10 CFU/mL and 1.05 log10 CFU/mL and 0.567 log10 CFU/mL and 1.29 log10 CFU/mL and 0.915 log10 CFU/mL and 1.46 log10 CFU/mL and 0.935 log10 CFU/mL (Mycoplasma gallisepticum; infected chickens, lung; intramuscular, 5 mg/kg daily x3, 72 h; baseline: 0 h).
CC1=CC(OC=C2C(=O)OC3c4ccccc4CC23)OC1=O (racemic) gave a maximum germination of 94% (Arabidopsis thaliana; htl-3 expressing ShHTL7).
With Cc1cccc2c1N(C(=O)n1ccnn1)CC2 the germination rate was 22.6% (Arabidopsis thaliana; kai2 mutant; 3 µM).
Under “lung bacterial load at ED50”, C=C(NC(=O)c1csc(-c2nc3c(cc2O)-c2nc(cs2)C(=O)NC(C(C)O)C(=O)NC(=C(C)OC)c2nc(cs2)C(=O)NC2c4nc(cs4)C(=O)NC(COC(=O)c4c5c6c(cccc6n4O)COC(=O)C(OC4CC(C)(O)C(N(C)C)C(C)O4)C2OC5)c2nc-3cs2)n1)C(N)=O (centres unmarked) is recorded as 5.25 log CFU/g (Streptococcus pneumoniae; -4, immunocompromised mice, lung infection; bid dosing).
The translation activity of CCOC(=O)c1c(NC(=O)Cn2cnc([N+](=O)[O-])n2)sc2c1CCC(C)C2 (centres unmarked) is reported as 98.5% and 106% and 96.5% and 91% (Trypanosoma cruzi; reporter mRNA translation, inhibitor, measured: capped polyadenylated Renilla luciferase mRNA; cell-free extract; concentration not given; baseline: positive over negative control).
With O=c1[nH]cc(C(c2cccc(C(F)(F)F)c2)c2c[nH]c(=O)[nH]c2=O)c(=O)[nH]1 the inhibition was 42% (HIV-1 subtype C; p24 antigen production, p24 ELISA; 125 µg/mL).
The inhibition of NCCOCCO.O=C(O)C(Cl)Cl is reported as 0% (Chenopodium album; herbicidal activity; 15 mg/mL, 21 days, post-emergence greenhouse).
The plaque reduction of CC(C)n1ncc2c(C(=O)NC[C@@H](C)N)cc(C3CC3)nc21 is reported as 100% (Enterovirus A71; viral replication; Tainan/4643/1998; 9000 nM).
O=c1[nH]cc(C(c2cccc(Cl)c2)c2c[nH]c(=O)[nH]c2=O)c(=O)[nH]1 has an inhibition of under 25% (HIV-1 subtype C; p24 antigen production, p24 ELISA; 1.95 µg/mL).
O=C(Nc1cc(-c2ccccn2)n[nH]1)N1CC[C@@H](Oc2ccc(F)cc2)C1 gave a translation activity of 96.4% and 142% (Trypanosoma cruzi; reporter mRNA translation, inhibitor, measured: Renilla luciferase mRNA; cell-free extract; concentration not given; baseline: positive over negative control).
COc1cc(C(=O)O)ccc1NC(=O)c1ccc(NC(=O)c2ccc(NC(=O)[C@H](Cc3c[nH]nn3)NC(=O)c3ccc(NC(=O)/C(C)=C/c4ccc(O)cc4)cc3)cc2)c(OC)c1 gave an MIC of 0.25 µg/mL (≈ 0.293 µM) (Salmonella Typhimurium; broth microdilution; TA100).

Some of these lines once more:
With Cc1cccc2c1N(C(=O)n1ccnn1)CC2 the germination rate was 22.6% (Arabidopsis thaliana; kai2 mutant; 3 µM).
